Measured values of several laboratories.
Each numbered part is a random draw from the data of one study; scales do not carry over between parts.

Block 1
Target: Ras GTPase-activating protein-binding protein 1, full length (G3BP1, Homo sapiens, UniProt Q13283)
Sequence of UniProt Q13283 (whole entry, looked up): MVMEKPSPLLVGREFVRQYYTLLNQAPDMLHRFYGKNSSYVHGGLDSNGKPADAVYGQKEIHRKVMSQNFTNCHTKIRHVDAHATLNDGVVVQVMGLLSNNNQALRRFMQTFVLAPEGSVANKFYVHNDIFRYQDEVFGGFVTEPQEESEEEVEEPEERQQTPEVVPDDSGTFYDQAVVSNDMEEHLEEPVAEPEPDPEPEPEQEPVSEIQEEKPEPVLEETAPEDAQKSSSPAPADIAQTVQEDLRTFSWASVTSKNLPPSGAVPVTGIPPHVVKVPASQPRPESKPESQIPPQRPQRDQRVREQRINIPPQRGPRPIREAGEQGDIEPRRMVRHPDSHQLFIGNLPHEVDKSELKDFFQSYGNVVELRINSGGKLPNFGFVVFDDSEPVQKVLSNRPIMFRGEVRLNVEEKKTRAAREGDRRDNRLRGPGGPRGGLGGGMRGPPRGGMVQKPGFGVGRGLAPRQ
Technique: RNA Bind-n-Seq
Molecule type: RNA
Medium: in vitro
Concentration: 200 nM
Notes: whole 134-nt RNA, ends assumed
Together with: 150 mM LiCl
Baseline: input library
Reading: higher = stronger binding
Quantity: log2 enrichment
Each molecule: 7-deaza-guanosine replaces G
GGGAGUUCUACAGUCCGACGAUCGCAGGAAGUAAAAACAAAUGGAAAUGCUUCGGCUAGUGGCAGGGGUGGGGGUUGCUAAGGAAAGGGUGGGAUGGGAGUGGGUAAAGAGUUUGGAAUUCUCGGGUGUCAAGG: 0.291
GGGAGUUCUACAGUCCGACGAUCCAAGUCCUGUGCUACACAUCGUAUGUACCGAAUCGGAAAGGGGAAAGGAAAGGGGAAAGUAUUAUGUUACGCCGUUCGGAUCUGCACUUCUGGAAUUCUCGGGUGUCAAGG: 0.064
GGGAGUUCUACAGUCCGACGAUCCACAGACAACACGCACCCACACAGACACAGAGGGAAGGGGUUGGGAUGGGGACAGGGUGCACAGCAGGUCGGGGUAGGACCCCAGCCCCUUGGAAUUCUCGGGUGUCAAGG: -0.735
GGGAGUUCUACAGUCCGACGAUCACCAUGCAGGUGGGCAUAUUUGGGAAGUGGGGCAAGGGGGGGAUAGGGAGGGGGGUAACACUUUGGGAACAGGUGGUCCCAGGUCGUUUCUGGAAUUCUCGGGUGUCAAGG: 0.143
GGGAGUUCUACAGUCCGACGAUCGUCCUGUGCUACACAUCGUAUGUACCGAAUCGGCCCCCCGGCCCCCCGGGGCCCCCCGGAAAGUAUUAUGUUACGCCGUUCGGAUCUGCAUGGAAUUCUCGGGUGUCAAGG: -0.677
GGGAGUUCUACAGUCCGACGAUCGCAGGAAGUAAAAACAAAUGGAGAUGCUUCGGAUAGUGGCAGGGGUGGGGGUUGCUAAGGAAAGGGUGGGAUGGGAGUGGGUAAAGAGUUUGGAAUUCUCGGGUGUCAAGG: 0.0976
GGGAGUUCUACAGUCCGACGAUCCUGUGCUACACAUCGUAUGUACCGAAUCGGCCCCCCCGGGGCCCCCCCGGGGCCCCCCCGGAAAGUAUUAUGUUACGCCGUUCGGAUCUGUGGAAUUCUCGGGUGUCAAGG: -0.214
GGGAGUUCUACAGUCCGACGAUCUGGCCCUGGUAGCAUGCGGGGAGGAAGAGGUGGCCUCAUGGAUCGUGGUGGUCCCGGUGGAAUGUUCAGAGGUGGCCGUGGUGGAGACAGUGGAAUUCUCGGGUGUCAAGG: 0.0695
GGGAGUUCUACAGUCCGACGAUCUGGCCCUGGUGGCAUGCGGGGAGGAAGAGGUGGCCUCAUGGAUCGUGGUGGUCCCGGUGGAAUGUUCAGAGGUGGCCGUGGUGGAGAGAGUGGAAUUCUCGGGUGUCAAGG: 0.605
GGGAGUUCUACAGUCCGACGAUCUCCUGUGCUACACAUCGUAUGUACCGAAUCGGGGCCCCCCGGCCCCCCGGGGCCCCCCGGAAAGUAUUAUGUUACGCCGUUCGGAUCUGCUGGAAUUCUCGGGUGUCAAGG: 0.453
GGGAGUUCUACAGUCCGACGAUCUUGUGGAAAACCCACAUGCUCCUCAGAAAGAUGAUGCCCUGGUGAUCACACACUACAACCGGACCCGACAGCAGGAAGAGAUGCUGGGGCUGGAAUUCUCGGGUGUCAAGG: -0.866

Block 2
Target: RING finger protein unkempt homolog, zinc fingers 1-6, SBP tag (UNK, Homo sapiens, UniProt Q9C0B0, residues 30-357)
Sequence of UniProt Q9C0B0 (30-357, looked up): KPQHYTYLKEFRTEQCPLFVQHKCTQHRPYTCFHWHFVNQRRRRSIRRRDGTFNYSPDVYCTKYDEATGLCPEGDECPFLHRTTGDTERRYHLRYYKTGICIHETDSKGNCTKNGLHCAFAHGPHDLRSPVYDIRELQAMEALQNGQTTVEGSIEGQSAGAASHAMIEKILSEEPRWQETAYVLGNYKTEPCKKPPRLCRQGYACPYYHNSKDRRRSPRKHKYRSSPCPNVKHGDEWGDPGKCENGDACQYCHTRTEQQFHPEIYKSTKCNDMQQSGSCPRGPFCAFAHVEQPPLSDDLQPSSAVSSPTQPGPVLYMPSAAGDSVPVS
Technique: RNA Bind-n-Seq
Molecule type: RNA
Medium: in vitro
Concentration: 100 nM
Notes: RNA with constant flanks, vertebrate orthologous sites, ends assumed
Baseline: input RNA pool
Reading: higher = stronger binding
Quantity: bound/input enrichment
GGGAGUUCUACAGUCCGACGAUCGAGAUUCCCCAUUGUCACUGAGAACCACCAAAUCUGACUUUUACAUUUGGUCUCAGAAUUUAGGUUCCUGCCCUGUUGGUUUUUUUUUUUUUUUUUAAAACAGUUUUCGAAAGUUCUUAACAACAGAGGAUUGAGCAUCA: 0.804 ratio
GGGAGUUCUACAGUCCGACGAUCUUUGCGUGGCAAUUAGAGUGGGUUCUCCCACUCAUACUCUCACACAGAAGAAAGCUCAAAUAAGUACUUUACACAUCUGAUUAUGCUGUUCUGUUUCUGUUUUCUAUUUUUACAUAUACACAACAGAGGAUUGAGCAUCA: 0.666 ratio
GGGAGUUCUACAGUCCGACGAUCGAGGAUUAGGUUCGAUCCUUUACGUGUUAAAAAAGAAAGCGUAAAAACAUUUUUAAAACAUAGAAAAAUUCAGCAAACCAUUUUUAAAGUAGAAGAGGGUUUUAGGUAGCAAAACGUAUUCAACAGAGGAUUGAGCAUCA: 1.1 ratio
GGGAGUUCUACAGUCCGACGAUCGAUUUGGACCCAGGAGCCAAACCAGGGAGCUAGCAAAAGUAAAGCAGGCGUGUAAAAGGAGAGUCCUGUGCAGCUGCCCAACAACAGUGCCACCACUAGCAGCUGUGUUAAAGUAUUCGUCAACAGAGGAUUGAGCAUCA: 0.463 ratio
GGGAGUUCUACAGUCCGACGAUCCUACAAUAAUGAAAAACCUACCAGGAAUUUUUUUAUUUUUCAUUUCCCCUUAGGCAUACCUAGUCUUUUUCCCCCGAGGCAGAUCAUUCUGAGUGUGCGAGUGUGUGUGCACAUGUUACACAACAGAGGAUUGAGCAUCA: 0.926 ratio
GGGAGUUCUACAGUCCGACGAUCGCAAAUCCAAUCACUGUGAUAUUUAAAAUAUGCACAGUCCUCAUUCUUUCUCCAUGAUCCUAGUAUUUUUCUAGCUGUAUCUUUGUAUCUCAUACUGUUAUUUAUCAGUUUUGUUCCCCUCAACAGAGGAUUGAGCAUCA: 0.957 ratio

Block 3
Target: Interferon regulatory factor 5, full length, phosphomimetic (IRF5, Homo sapiens, UniProt Q13568-2, residues 1-514, S451D/S453D/S456D/S462D)
Technique: protein-binding microarray
Molecule type: double-stranded DNA, one strand shown
Medium: in vitro
Concentration: 940 nM top
Notes: 60-bp whole probe
Together with: salmon DNA 0.4 mg/ml
Baseline: random background probes
Reading: higher = stronger binding
Quantity: fitted relative affinity
Constant ends, left off below: GCCTAGCAC … GTCTTGATTCGCTTGACGCTGCTG
TTAGATATCAGCCTCGATTAGTGCTAG: -0.158 z-score
GACAGACTGGGTTTCGGGACGTGCTAG: 3.05 z-score
GACGCTCTCGGTATCGGGACGTGCTAG: 4.8 z-score
TTATGTATCCTACTGCTTTAGTGCTAG: 0.0676 z-score
GACGGTCTCGGTCTCGGGAAGTGCTAG: 4.13 z-score
GACGGTTTAGACTTTCGGGACGTGCTA: 0.789 z-score
TTTGGTATCGGTATCGGTTAGTGCTAG: 14.6 z-score
TTGGGTATCGGGACTGGGTTAGTGCTA: 3.3 z-score
TCACATTAAATTTTAATACTGTGCTAG: 0.241 z-score
TTAGGACTGGGGTATCGGTGAGTGCTA: 1.55 z-score
TTGGGTATCGGACTGGGTTAGTGCTAG: 2.93 z-score
TTTTCATTATTGTCTCCCCCAGTGCTA: 2.25 z-score
GACGAACTGGGTCTCGGGACGTGCTAG: 0.124 z-score

Block 4
Target: RNA binding protein fox-1 homolog 2, RRM domain, GST-SBP tag (RBFOX2, Homo sapiens, UniProt O43251-10, residues 100-194)
Technique: RNA Bind-n-Seq
Molecule type: RNA
Medium: in vitro
Concentration: 365 nM
Notes: natural RNA segment, single round, ends assumed
Baseline: no-protein control
Reading: higher = stronger binding
Quantity: RBNS enrichment (R)
Residues (chain): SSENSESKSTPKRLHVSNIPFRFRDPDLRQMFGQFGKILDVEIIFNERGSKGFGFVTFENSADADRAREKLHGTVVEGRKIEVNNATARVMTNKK
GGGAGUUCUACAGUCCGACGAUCCUUUAUUGCCUUCCUUGGGGAUAAACCAAUUCCUAUCCUUUUUUAUAUGUGUAAGUAAAGCCUGAAGUGUAGGGGGCCUUUGUUCUUGAAGCAGCCAGGGUCUCCUUGCCUGGAAUUCUCGGGUGCCAA: 0.527
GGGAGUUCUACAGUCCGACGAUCUAUAUAUAUUUUUCCUUCACUGUGUCAAGUGGAAACAAAAACAAAAUCUUUCAAAAAAAAAAUCGGGACAAGUGAACACAUUAACAUGAUUCUGUUUGUGCAGAUUAAAAUGGAAUUCUCGGGUGCCAA: 0.582
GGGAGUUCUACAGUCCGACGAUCUGUUUGUAGCUGAUUGUUGUGUUUUAUAAAUCUUCUGUUAAGGCAGAAGGGUGAUUAUGAGUGGUUCACAGCAGCCCUUAUAAGCUGGGCCAGAAAAUUUCACUAGGUCAUGGAAUUCUCGGGUGCCAA: 0.576
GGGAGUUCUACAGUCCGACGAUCGGCCGCCAUUUUGGCAAGACAAUCUGAAUGUGCCUUCCUGGAGCUGUCGGCUGGAAUCCCUCAUGAGUCAAGUACUGUACCUCCCUGGCACAUGAAACUCUGGGAUCCAGUGGAAUUCUCGGGUGCCAA: 0.342
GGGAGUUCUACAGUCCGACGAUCAGGGACGGACAUUGCAGUUACACCACGAUUCCUUCCUCUUCACUGGCUCGAGGUAAACCCUUUUCAAGGAAAAACAACUCUAGGAUUUCUUUUUUCUGUGUACGUAGACCUGGAAUUCUCGGGUGCCAA: 0.542
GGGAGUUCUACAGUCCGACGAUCAGUCUGGGAGGACAUCUUUUUAUUUUUACAUGAAUCUUUAAACAAUUCUGUGAGCAGAGUUUCUAGCUGCUGGAUUGUUGUCUGUCUUUAUAGCAGGUCCCAGUGAACCAUGGAAUUCUCGGGUGCCAA: 0.326
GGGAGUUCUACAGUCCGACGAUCCUCAGCCUCCCAAGUAGCUGAGAUUACAGGCGCCUGCCACCCCACCUGGCUGAUUUUUGUAAUUUUAGUAGAGACGGGGUUUCACCAUGUUGGCCAGGCUGAUUAACUCCUGGAAUUCUCGGGUGCCAA: 0.342
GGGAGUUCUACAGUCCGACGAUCACAUUGUUGGUCACCGAGCUAUUUAAGUAGACUGUAUUUCAGCUCUGUCUCUUGUUUAUAUGAAUAAGUUCUCGUCGUUUGUCCUUUAUGUAUUCUUCUCUACCGUAUAAUGGAAUUCUCGGGUGCCAA: 1.24
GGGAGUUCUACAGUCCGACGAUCGGACCAAUGCAUCUCUUUAAAGGCAAAUAUUAUCCAGCAAGCAGUCUACCCUGUCCUUUGCAAUUGCUCUUCUCCACGUCUUUCCUGCUACAAGUGUUUUAGAUGUUACUUGGAAUUCUCGGGUGCCAA: 0.588
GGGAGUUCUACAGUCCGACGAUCUUAAGAAGGACAGUUCAUUGUAGGAAAGCAAUUCUGUACAUGAGUUUAAGCAUUCUUGUUGCAUUGUCUCUGCAGAUUCUAUUUUUGUUUACAAUAUUAAAAUGUAUGUUUGGAAUUCUCGGGUGCCAA: 0.874
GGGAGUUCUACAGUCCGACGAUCGCACCCCCUCCCUUUCCCUUAACUCUACUUUUACAUCCCCAAACCACCUUUGUCAUCAGCUUUUCCUCUUUGCCACUGGAUCUUCAUGGAGACAUGGGCAAGCAUUAGUGUGGAAUUCUCGGGUGCCAA: 2.07
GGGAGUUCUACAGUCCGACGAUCCUAUUAAAAUUCUGAUGUUUCUGUGAAAUUCUCAGAGUGUUUAAUUGUACUCAAUGGUAUCAUUACAAUUUUCUGUAAGAGAAAAUAUUACUUAUUUAUCCUAGUAUUCCUGGAAUUCUCGGGUGCCAA: 0.525

Block 5
Target: Histone acetyltransferase KAT6A, both winged helices, GST fusion (KAT6A, Homo sapiens, UniProt Q92794, residues 1-181)
Technique: protein binding microarray
Molecule type: double-stranded DNA, one strand shown
Medium: in vitro
Concentration: not given
Notes: 8-mer, flanks averaged, mean of 2 arrays, mostly near background
Baseline: not given
Reading: higher = stronger binding
Quantity: E-score
Construct (chain): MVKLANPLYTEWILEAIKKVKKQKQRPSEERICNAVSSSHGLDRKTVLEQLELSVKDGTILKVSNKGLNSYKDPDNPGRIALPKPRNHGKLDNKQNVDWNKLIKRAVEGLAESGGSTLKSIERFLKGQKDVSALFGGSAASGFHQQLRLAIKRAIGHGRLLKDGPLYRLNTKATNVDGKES
AATAGCTC: -0.133
CACTAGCC: 0.194
AAGTGCAT: -0.0261
CGAACAGC: 0.133
TCGCTCCA: 0.0576
CTCGGTCA: 0.0841
CAACAACC: -0.144
AGGTTATG: -0.216
ACCCAGCC: -0.126
ACGAACGT: 0.0361
ACCCCGGT: 0.0271
GTGTTTGA: -0.0789
CCAAAAAA: -0.0361
